Published values from different studies.
A part holds a random share of what one study measured.

Series 1 — technique: RNA Bind-n-Seq; form: RNA; matrix: in vitro; concentration: 200 nM; notes: whole 134-nt RNA, ends assumed; with: 150 mM LiCl; reference: input library; direction: higher = stronger binding; endpoint: log2 enrichment; library: 7-deaza-guanosine replaces G
Target: Fragile X messenger ribonucleoprotein 1, C-terminal low-complexity region (Fmr1, Mus musculus, UniProt P35922)
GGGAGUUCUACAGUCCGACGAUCGCAGGAAGUAAAAACAAAUGGAAAUGCUUCGGAUAGUGGCAGGGGUGGGGGUUGCUAAGGAAAGAAAGGGAUGGGAGUGGGUAAAGAGUUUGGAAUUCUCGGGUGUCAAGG: 1.46
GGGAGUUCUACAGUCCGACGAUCCACAGACAACACGCACCCACACAGACACAGAGGGAAGGGGUUGGGAUGGGGACAGGGUGCACAGCAGGGCGGGGUAGGACACCAGCCCCUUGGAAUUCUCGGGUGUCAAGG: 0.308
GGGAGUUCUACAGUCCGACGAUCGUCCUGUGCUACACAUCGUAUGUACCGAAUCGGGGCCCCCGGGCCCCCGGCCCCCGGGGAAAGUAUUAUGUUACGCCGUUCGGAUCUGCAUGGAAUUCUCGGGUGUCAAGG: -1.71
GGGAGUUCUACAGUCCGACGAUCCCUCAAGUCCUGUGCUACACAUCGUAUGUACCGAAUCGGGAGGGAGGGAGGGAAAGUAUUAUGUUACGCCGUUCGGAUCUGCACUUCCAGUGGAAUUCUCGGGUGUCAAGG: -0.974
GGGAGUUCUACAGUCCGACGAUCAAGUCCUGUGCUACACAUCGUAUGUACCGAAUCGGAAAAAGGUUUUUUUGGUUUGGAAAGUAUUAUGUUACGCCGUUCGGAUCUGCACUUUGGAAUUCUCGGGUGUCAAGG: -3.76
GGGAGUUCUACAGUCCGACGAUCAGUCCUGUGCUACACAUCGUAUGUACCGAAUCGGUUUGGUUUUUUUGGUUUUUUUGGAAAGUAUUAUGUUACGCCGUUCGGAUCUGCACUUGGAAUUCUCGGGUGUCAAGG: -1.6
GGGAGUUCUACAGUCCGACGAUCUGGGAGGUGGAUUUUGUUUAUUUUUUUAGCUCAUUUCCAGGGGUGGGAAUUUUUUUUUAAUAUGUGUCAUGAAUAAAGUUGUUUUUGAUAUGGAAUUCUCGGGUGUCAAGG: -0.2
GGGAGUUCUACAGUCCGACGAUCGUCCUGUGCUACACAUCGUAUGUACCGAAUCGGGUUUUUUUGGGAAAGGGAAAAAGGGAAAGUAUUAUGUUACGCCGUUCGGAUCUGCACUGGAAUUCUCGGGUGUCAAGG: -1.28
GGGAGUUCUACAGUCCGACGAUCUAGCAUAUUGCCUUGUUCACUACCGAGGAGAUGAGAAGAUUAAAGGUUUCAUAUGGGAUCUCAUUACUCCAACUGAAGAUGGACAGACACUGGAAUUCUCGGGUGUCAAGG: 1.02
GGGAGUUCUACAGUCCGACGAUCCAAGUCCUGUGCUACACAUCGUAUGUACCGAAUCGGGGCCCGGGCCCGGGCCCGGGAAAGUAUUAUGUUACGCCGUUCGGAUCUGCACUUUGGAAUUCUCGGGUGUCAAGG: -1.74
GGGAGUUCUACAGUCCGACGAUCAGUCCUGUGCUACACAUCGUAUGUACCGAAUCGGAAAAAGGGAAAAAGGAAAAAGGGAAAGUAUUAUGUUACGCCGUUCGGAUCUGCACUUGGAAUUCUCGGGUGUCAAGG: -1.47

Series 2 — technique: universal PBM; form: double-stranded DNA, one strand shown; matrix: in vitro; concentration: 600 nM; direction: higher = stronger binding; endpoint: E-score
Target: Sal-like protein 4, full length isoform A (SALL4, Homo sapiens, UniProt Q9UJQ4, residues 1-1053)
UniProt Q9UJQ4, sequence (whole entry, looked up): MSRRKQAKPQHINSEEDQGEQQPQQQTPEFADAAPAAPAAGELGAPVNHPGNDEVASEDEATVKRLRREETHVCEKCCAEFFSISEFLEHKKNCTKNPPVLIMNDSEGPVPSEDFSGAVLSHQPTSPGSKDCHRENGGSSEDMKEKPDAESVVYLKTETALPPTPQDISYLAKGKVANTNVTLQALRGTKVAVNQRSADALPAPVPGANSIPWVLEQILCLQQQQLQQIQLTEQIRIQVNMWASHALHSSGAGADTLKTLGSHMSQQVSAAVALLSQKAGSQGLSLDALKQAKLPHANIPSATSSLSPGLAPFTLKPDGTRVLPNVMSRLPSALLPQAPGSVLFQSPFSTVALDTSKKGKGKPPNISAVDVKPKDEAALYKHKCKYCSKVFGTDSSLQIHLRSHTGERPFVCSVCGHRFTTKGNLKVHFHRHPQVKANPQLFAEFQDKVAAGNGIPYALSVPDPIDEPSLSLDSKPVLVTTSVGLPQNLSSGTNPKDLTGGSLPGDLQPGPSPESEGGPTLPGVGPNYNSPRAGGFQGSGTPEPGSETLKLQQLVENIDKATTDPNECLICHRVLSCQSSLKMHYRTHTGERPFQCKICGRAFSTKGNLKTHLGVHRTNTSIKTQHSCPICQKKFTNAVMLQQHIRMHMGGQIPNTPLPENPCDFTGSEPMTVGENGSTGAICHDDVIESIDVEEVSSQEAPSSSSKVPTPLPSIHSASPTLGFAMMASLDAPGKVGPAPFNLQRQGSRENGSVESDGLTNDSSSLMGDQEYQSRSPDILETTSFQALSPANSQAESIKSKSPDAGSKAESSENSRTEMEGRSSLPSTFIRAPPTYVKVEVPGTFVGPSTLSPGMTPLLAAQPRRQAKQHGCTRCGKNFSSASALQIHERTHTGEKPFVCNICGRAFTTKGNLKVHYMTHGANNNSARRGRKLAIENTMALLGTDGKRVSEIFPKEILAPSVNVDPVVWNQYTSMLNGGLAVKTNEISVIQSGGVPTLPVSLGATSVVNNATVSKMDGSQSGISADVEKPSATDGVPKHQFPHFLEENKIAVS
Notes: 8-mer, flanks averaged, mean of replicates
TGTGGAAA: 0.255
GCAACACA: 0.0134
ACGAACCT: -0.035
AAGTTCCT: -0.131
CGAAGGGA: -0.216
CACTCACG: -0.217
AACTCCGC: -0.254
GCGTAGAA: -0.0742
CGTGATGC: -0.0833
CATTTGTA: 0.293
AACATAAA: 0.325
CACGTCGA: -0.224
GGCCACGA: -0.258
CAAATTTC: 0.226
ACCTATCG: 0.0449
CCTGCCAG: -0.235
GAAACTCC: -0.347
AAGACGAG: -0.205
CCGCGCGC: -0.318

Series 3 — technique: RNA Bind-n-Seq; form: RNA; matrix: in vitro; concentration: 100 nM; reference: input RNA pool; direction: higher = stronger binding; endpoint: bound/input enrichment
Target: RING finger protein unkempt homolog, zinc fingers 1-6, SBP tag (UNK, Homo sapiens, UniProt Q9C0B0, residues 30-357)
UniProt Q9C0B0, sequence (30-357, looked up): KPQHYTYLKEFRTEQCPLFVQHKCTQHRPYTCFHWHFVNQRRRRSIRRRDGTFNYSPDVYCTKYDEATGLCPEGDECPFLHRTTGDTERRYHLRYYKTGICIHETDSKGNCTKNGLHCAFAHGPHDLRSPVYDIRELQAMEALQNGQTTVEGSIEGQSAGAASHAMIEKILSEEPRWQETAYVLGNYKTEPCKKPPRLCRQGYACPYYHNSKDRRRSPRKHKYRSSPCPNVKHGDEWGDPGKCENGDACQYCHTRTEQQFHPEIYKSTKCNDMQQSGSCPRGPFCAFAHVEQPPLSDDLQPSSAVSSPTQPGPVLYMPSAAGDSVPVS
Notes: RNA with constant flanks, vertebrate orthologous sites, ends assumed
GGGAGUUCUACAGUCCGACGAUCUGUUAACUCUUGCAGUCUUAGAUGUUAUAAAACUAUAUAUGUCUGAAUUGUAAGAGUUGUUAACACAGUUUUUUUUUUUAAGCACUUGUUUUGGGUACAAAAUUUUAUAAACACAUUUAACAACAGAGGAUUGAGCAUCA: 0.24 ratio
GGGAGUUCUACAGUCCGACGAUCGAGGUAUUGAAUAGUAUUAAAGAAACUUACUCGUCUUCCUUUAUCUUUUGUCCCGAUACCUAGUCUACUUUUUAAAAUUUCAAACUUCACUGCUCUUUGAAUUGAUGAUUCCAGUUUUCACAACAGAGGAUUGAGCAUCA: 1.05 ratio
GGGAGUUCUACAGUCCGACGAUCAGUAGUUUUAAGCUUGUUUGCACAGUUCUUUUGUUCCAUUGGAAAUGGAAUUCAUUGCCUUAGGUCUUUUUAAAUAGUGUAUUAUCGUUGGGGCUGGCUCUAUGCUUGAAAACCAGUUUACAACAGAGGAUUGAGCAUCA: 3.01 ratio
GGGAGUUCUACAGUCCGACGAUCUGGGUUACUCCUAUUAUUAUCAAGUAGCUGGAAUUGUGAAGGUCGGAGUAGUUAGAUCUUUAGCUUUUAUUCCUUAUUUUUUUUUGUAUUCCUAUCCAUGUGUAUAAAUUAUUGAUCAUGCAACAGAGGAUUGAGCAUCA: 7.14 ratio
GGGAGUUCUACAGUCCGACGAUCGUGCAAGGAGAUUAUUCCAACUAGUGAAUUUAUUAACAGUAAGUUAACAGCAAAAGCAAAUAGGCAGCUUCAAGAUCCUUUAGUAAUCAUGACAGGAAACAUCCCAACAUGGCUUACUGACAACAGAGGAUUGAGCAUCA: 1.03 ratio
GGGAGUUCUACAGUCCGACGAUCUAAGAAUUGGAAGAAUUUUAUAGGAGGUGGUAGUCAAAAAGUAGCAGCAGUUUGGAAGAGUGGUUACAAAUAUCAAGAGCCAGGUGGCUAAAAGGUAGAGCUAUAGGUCAUUGAAGCUCACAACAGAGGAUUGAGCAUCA: 0.675 ratio
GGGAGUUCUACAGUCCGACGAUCUCUACUGACCGCUCACUGUUACGUCUGGGUAUCUGUAAACACUUUUCUUUUUGUUCUUAGUCUUUUUCUUGUAUAAUUGAUGUUCUCUAAAAUUGUUAAUGUUAUCACAGGGCUUAUAUUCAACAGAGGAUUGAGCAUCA: 1.71 ratio
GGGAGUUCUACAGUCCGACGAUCAUCUCUCAUUUUAUAUGUCCAAAAAAAGUUUGGAAUUUUUAAACAACUGCUAGUUUUAAUUAGCUCUGCCCUCAUGAAGUAUUAUAAUCACCAAAAACAGAUACCUGUCUGAAUUACUUCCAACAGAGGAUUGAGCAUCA: 0.544 ratio
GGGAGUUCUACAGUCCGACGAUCUUAUGCUAUAAUUUUCAUCCUACCUCUAAAACAGCACAGUGAUGACAAACCAGUCCCCAUUAGGGGGUCACCUGCUGCCACUUUCUCAGCGGUGUGUGUCUGAGCCCUGAACUAGUCACACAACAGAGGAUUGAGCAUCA: 1.05 ratio
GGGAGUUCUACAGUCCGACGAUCGUGUUGGUGCGGAGUGCUCUGUACCAGUGCUCAUCGUCCCUUCUUCAUACCAACUGUCCUAGUUAUAGGAAUAUUUUUUAAAGUUUUACAUUGCUGUAUAUUCAAAGAUUUGUUUUAUUACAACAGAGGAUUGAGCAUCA: 0.452 ratio
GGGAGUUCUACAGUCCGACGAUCGAACAUAUGUAGAAAACAACUUUCACUGAACCCAUUGUCAAGUUUUCCCCUAGCAUUUUAUUUGGACUUCUUUUGUUUUAUACAAGCUUGCAGUGUUUGUCAUUAUUAGUCCACAAUUUACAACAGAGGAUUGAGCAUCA: 1.12 ratio

Series 4 — technique: aptamer microarray, sandwich; form: DNA with 2'F-ANA; matrix: in vitro; concentration: 200 nM; with: Cy3 exosite-II aptamer, 400 nM; direction: higher = stronger binding; endpoint: mean fluorescence intensity; oligonucleotide: GGTTGGTGTGGTTGG
Target: Prothrombin, mature alpha-thrombin (F2, Homo sapiens, UniProt P00734)
Notes: whole 15-mer aptamer, many near background
2'F-ANA at 3 6 8 12 14 15: 526 a.u.
2'F-ANA at 1 3 5 6 7: 70.2 a.u.
2'F-ANA at 1 2 3 5 8 9 10 11 12 13: 49.7 a.u.
2'F-ANA at 5 6 7 9 12 13 15: 92.9 a.u.
2'F-ANA at 3 4 5 6 7 8 9 10 11 12 13 15: 55.9 a.u.
2'F-ANA at 14: 212 a.u.
2'F-ANA at 3 4 5 6 8 9 10 12 14 15: 57.5 a.u.
2'F-ANA at 1 2 3 4 5 6 9 10 13 14: 68.7 a.u.
2'F-ANA at 1 2 7 8 10 11 13 14: 55.5 a.u.
2'F-ANA at 2 3 4 5 6 14 15: 55.4 a.u.
2'F-ANA at 1 2 3 4 6 7 8 9 13: 105 a.u.
2'F-ANA at 1 2 4 6 7 9 11 12: 174 a.u.
2'F-ANA at 2 4 5 6 9 10 11 12 14 15: 48.1 a.u.
2'F-ANA at 4 5 10 11 13 14: 42.7 a.u.
2'F-ANA at 3 6 7 11 12 14 15: 611 a.u.
2'F-ANA at 1 4 6 8 10 12 14 15: 52.3 a.u.

Series 5 — technique: protein binding microarray; form: double-stranded DNA, one strand shown; matrix: in vitro; concentration: not given; reference: not given; direction: higher = stronger binding; endpoint: E-score
Target: Histone acetyltransferase KAT6A, winged helix 1, GST fusion (KAT6A, Homo sapiens, UniProt Q92794, residues 1-85)
Notes: 8-mer, flanks averaged, mean of 2 arrays, mostly near background
Target sequence (chain): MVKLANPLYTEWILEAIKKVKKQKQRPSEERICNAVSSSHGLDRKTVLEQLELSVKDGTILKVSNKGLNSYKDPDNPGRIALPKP
ATGATATA: -0.0897
AGGTTCGC: 0.157
CCGAAACC: -0.0819
CCTCTGAA: -0.109
CTGTAATC: -0.069
CAAAGGAC: -0.0544
AGGTTTCG: 0.00217
TGACATAA: -0.18
ACAATGTG: -0.219
AAACCCTC: -0.0712
CAGTTGAC: -0.0618
CAAGAGCC: 0.0372
ATCAGGAA: -0.184
GATATGAA: -0.0224
GTGGCCTA: -0.187
AGGTATCA: -0.245
TAGTCGCA: -0.0334
GATCCCGC: 0.346
GAACTACA: -0.0336
CCGCGCTC: 0.378
ATTTCGGG: -0.101

Excerpt of the above (series 2):
GCGTAGAA: -0.0742
CGTGATGC: -0.0833
CATTTGTA: 0.293
AACATAAA: 0.325
CACGTCGA: -0.224
GGCCACGA: -0.258
CAAATTTC: 0.226
ACCTATCG: 0.0449
CCTGCCAG: -0.235
GAAACTCC: -0.347
AAGACGAG: -0.205
